Experimental data of several laboratories.
Lines come from different studies, so protocols differ. Several values in a cell are separate wells, animals, samples, runs or records. ± gives the spread as reported.

SMILES	cell line	test	system	conditions	viability
Cc1cc(-c2ccccc2)nc2sc(C(=O)Nc3ccccc3)c(N)c12	MDA-MB-231	MTT	–	100 µM, 72 h	43 ± 2%
CCSc1nc2ccccc2n1Cc1nnc(-c2ccccc2OC)o1	neutrophils	–	fresh heparinized human blood	200 µg/mL, 30 min	74.1 ± 4.3%
O=c1cc(-c2ccc(O)cc2)oc2c([C@@H]3O[C@H](CO)[C@@H](O)[C@H](O)[C@H]3O)c(O)cc(O)c12	Caco-2	CCK-8	–	10 µM, 24 h	92.7%
CCOC(=O)c1ccc(NC(=O)CSc2nc(C)cc(C)c2C#N)cc1	MDA-MB-231	MTT	–	100 µM, 72 h	64 ± 17%
O=c1c(O[C@@H]2O[C@H](CO)[C@H](O)[C@H](O)[C@H]2O)c(-c2ccc(O)c(O)c2)oc2cc(O)cc(O)c12	Caco-2	CCK-8	–	5 µM, 24 h	93.7%
N#Cc1c(C(F)(F)F)cc(-c2ccccc2)nc1SCC(=O)Nc1ccon1	MDA-MB-231	MTT	–	100 µM, 72 h	50 ± 9%
CCSc1nc2ccccc2n1Cc1nnc(-c2ccc(F)cc2)o1	neutrophils	–	fresh heparinized human blood	200 µg/mL, 30 min	55.5%
Oc1ccc(C2(c3ccc(O)cc3)c3ccccc3-c3ccccc32)cc1	HepG2 spheroids	annexin V/PI flow cytometry	–	10 µM, 96 h	19.2 ± 13.6%
COC(=O)c1ccc(NC(=O)c2sc3nc(C)cc(-c4ccccc4)c3c2N)cc1	MDA-MB-231	MTT	–	100 µM, 72 h	29 ± 7%
Nc1ncnc2c1ncn2[C@@H]1O[C@@H]2COP(=O)(O)O[C@H]3[C@@H](O)[C@H](n4cnc5c(=O)[nH]cnc54)O[C@@H]3COP(=O)(O)O[C@H]2[C@H]1O	HFF-1	–	–	100 µg/mL	92%
CC[C@H](C)[C@H](NC(=O)[C@H](CC(C)C)NC(=O)[C@H](CCCNC(=N)N)NC(=O)[C@@H](N)CCCNC(=N)N)C(=O)N[C@@H](CCCNC(=N)N)C(=O)N[C@@H](CCCCN)C(=O)N[C@@H](CC(C)C)C(=O)N[C@@H](CCCCN)C(=O)NCC(=O)N[C@@H](CC(C)C)C(=O)N[C@@H](CCCCN)C(=O)N[C@@H](CCCCN)C(=O)N[C@@H](Cc1ccc(O)cc1)C(=O)N[C@@H](CC(C)C)C(=O)N[C@@H](Cc1ccc(O)cc1)C(=O)N[C@@H](Cc1ccccc1)C(=O)N[C@@H](CCCCN)C(=O)N[C@@H](CC(C)C)C(=O)N[C@@H](CCC(N)=O)C(=O)N[C@@H](CC(C)C)C(=O)N[C@@H](CC(C)C)C(=O)N[C@@H](CCCCN)C(=O)N[C@@H](CCCCN)C(N)=O	HCT-116	MTT	–	32 µM, 48 h	~85%
COC(=O)CNC(=O)CCSc1nc(C)cc(C)c1C#N	MDA-MB-231	MTT	–	100 µM, 72 h	71 ± 7%
CC(C)c1ccc(C(=O)c2c(N)c(C(N)=O)c3ccccn23)cc1	THP-1-derived macrophages	–	–	10 µM, 3 h	100% and 95.8% and 92.9%
CCSc1nc2ccccc2n1Cc1nnc(-c2ccc(O)cc2O)o1	neutrophils	–	fresh heparinized human blood	200 µg/mL, 30 min	84.33 ± 0.1%
C[C@@H]1O[C@@H](OC[C@H]2O[C@@H](Oc3c(-c4ccc(O)c(O)c4)oc4cc(O)cc(O)c4c3=O)[C@H](O)[C@@H](O)[C@@H]2O)[C@H](O)[C@H](O)[C@H]1O	Caco-2	CCK-8	–	20 µM, 24 h	113%
CCSc1nc2ccccc2n1Cc1nnc(-c2ccc(O)cc2)o1	neutrophils	–	fresh heparinized human blood	200 µg/mL, 30 min	80.4 ± 7.1%
Cc1cc(C)c2c(N)c(C(=O)NCc3ccccc3)sc2n1	MDA-MB-231	MTT	–	100 µM, 72 h	65 ± 3%
CCSc1nc2ccccc2n1Cc1nnc(-c2ccccc2Cl)o1	neutrophils	–	fresh heparinized human blood	200 µg/mL, 30 min	30 ± 5.2%
Cc1cccc(NC(=O)c2sc3nc(C)cc(C(F)(F)F)c3c2N)n1	MDA-MB-231	MTT	–	100 µM, 72 h	36 ± 3%
CCSc1nc2ccccc2n1Cc1nnc(-c2cc(OC)c(OC)c(OC)c2)o1	neutrophils	–	fresh heparinized human blood	200 µg/mL, 30 min	79 ± 7.1%
CC(C)C[C@@H](NC(=O)CNC(=O)[C@@H](CCCCN)NC(=O)[C@@H](CC(C)C)NC(=O)[C@@H](CCCCN)NC(=O)[C@@H](CCCNC(=N)N)NC(=O)[C@@H](CC(C)C)NC(=O)[C@@H](CC(C)C)NC(=O)[C@@H](CCCNC(=N)N)NC(=O)[C@H](N)CCCNC(=N)N)C(=O)N[C@H](CCCCN)C(=O)N[C@H](CCCCN)C(=O)N[C@H](Cc1ccc(O)cc1)C(=O)N[C@H](CC(C)C)C(=O)N[C@H](Cc1ccc(O)cc1)C(=O)N[C@H](Cc1ccccc1)C(=O)N[C@H](CCCCN)C(=O)N[C@H](CC(C)C)C(=O)N[C@H](CCC(N)=O)C(=O)N[C@H](CC(C)C)C(=O)N[C@H](CC(C)C)C(=O)N[C@H](CCCCN)C(=O)N[C@H](CCCCN)C(N)=O	HCT-116	MTT	–	64 µM, 48 h	~55%
CCSc1nc2ccccc2n1Cc1nnc(-c2ccc(OC)c(OC)c2)o1	neutrophils	–	fresh heparinized human blood	200 µg/mL, 30 min	95.4 ± 5.2%
COC(=O)c1ccc(NC(=O)CSc2nc(C)cc(-c3ccccc3)c2C#N)cc1	MDA-MB-231	MTT	–	100 µM, 72 h	40 ± 9%
CCSc1nc2ccccc2n1Cc1nnc(-c2cccc(O)c2)o1	neutrophils	–	fresh heparinized human blood	200 µg/mL, 30 min	82.2 ± 1.1%
O=C1CCP(=S)(c2ccccc2)CC1	HCT-116	trypan blue	–	IC50, 72 h	78.3%

Excerpt of the above:
SMILES	cell line	test	system	conditions	viability
Cc1cccc(NC(=O)c2sc3nc(C)cc(C(F)(F)F)c3c2N)n1	MDA-MB-231	MTT	–	100 µM, 72 h	36 ± 3%
CCSc1nc2ccccc2n1Cc1nnc(-c2cc(OC)c(OC)c(OC)c2)o1	neutrophils	–	fresh heparinized human blood	200 µg/mL, 30 min	79 ± 7.1%
